Experimental data from different studies.
A part holds a random share of what one study measured. Values joined by “and” are separate records of one study, mostly repeats; a detail may differ.

Set 1
Target: RING finger protein unkempt homolog, zinc fingers 1-6, GST-SBP tag (UNK, Homo sapiens, UniProt Q9C0B0, residues 30-357)
UniProt Q9C0B0, sequence (30-357, looked up): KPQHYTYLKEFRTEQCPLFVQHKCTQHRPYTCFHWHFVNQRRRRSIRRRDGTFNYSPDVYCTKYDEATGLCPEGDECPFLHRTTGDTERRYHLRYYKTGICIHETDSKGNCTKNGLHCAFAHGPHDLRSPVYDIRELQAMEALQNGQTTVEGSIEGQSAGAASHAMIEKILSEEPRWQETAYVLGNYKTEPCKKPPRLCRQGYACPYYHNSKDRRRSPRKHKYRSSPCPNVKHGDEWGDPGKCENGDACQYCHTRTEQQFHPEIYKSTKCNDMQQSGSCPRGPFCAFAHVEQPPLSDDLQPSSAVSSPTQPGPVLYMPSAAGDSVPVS
Method: RNA Bind-n-Seq
Form: RNA
Matrix: in vitro
Concentration: not given
Setting: RNA with constant flanks, human-mouse chimeric sites, ends assumed
Reference: input RNA pool
Direction: higher = stronger binding
Shared flanks, not repeated: GGGAGUUCUACAGUCCGACGAUC … CAACAGAGGAUUGAGCAUCA
Sequence	bound/input enrichment [ratio]
GCUCCUCUUCCGCACUCAGCCUGGGGACACUGGGCUGCAUUUUUUUUCCAGCUUUCUUUUAAAACUCUCAGUGUAACUGUAUCCCGUGACAUUUCAUUUUUUUUAAAUAGUGUAUUUUUU	6.29
UAAGUUAUUUUGUACAGCUUUGUAAAUUCUUAACAUUUUUAUAUUGCCAUGUUUAUUUUGUUUGGGUAAUUUGGUUCAUUAAGUACAAAACCAAAUAAAUGAACAUCUUUUUCAGUAAUU	1.24
CACAGAGCAGCACCUACCCCCUCCUCCUUUCCACACCUGCAAACUCUUUUACUUGGGCUGAAUAUUUAGUGUAAUUAACAUCGCAGCUUGAGGGCUCCUGUGGCAAAAUACCCGGAUAAA	1.44
UAUAUCACCAAUGUCCUACAAAAUCCUGACUUGGCUCUGAGAAUGGCUGUGCGGAACAACUUAGCUGGUGCUGAAGAACUCUUUGCCCGGAAAUUUAAUGCUCUUUUUGCCCAGGGAAAC	0.284
AGGAGGAGAUUAAAGGGUGAGAGUGGGGUGGAAGACUGUGUCAUGGCUCUGGAGACAUUGUUUAGUGUCCUGCUUUCUCUGUGCAGACUGAUGGCCCCUUACACGCCCUUUCUGACUGAG	0.104
ACUCAGAGAUCCACCUCAAUUGAAGUGGGGAGUAAAGGUGUGGCCACCACACCUAACUUGAUGGAUAUAUAUUUUUUUUAAUAUGAAUCUUCCUGUUCGUCCAGGGAAGAAAGAUUUGUU	1.13
AACUUUGUGCAUCGGUUUCCCUUUGUAGCUGUUUCAAUUGGCUUCCUUGUAAAUAAAGAGAUGGAGUUUGGAAUUGUGUACAGCUGUGUGGAAGAUAAGAUGUACACCGGCAGGAAAGGG	0.333
CUGGCCUUCUGAGCAUCAGGGGCCUCCUUUCGUAUAGUCACUGCUUCUGCAUCAGAUACUUUCAGCUCCAAGUCCUGACUGGGUGGGGCACCCAUUUCAGGCAGAAGGUUUUGGUACCCU	0.158

Set 2
Target: Hepatocyte nuclear factor 3-alpha (Foxa1, Mus musculus, UniProt P35582, residues 1-468, full length assumed)
Method: EMSA with sequencing
Form: double-stranded DNA, one strand shown
Matrix: in vitro
Concentration: 10 and 20 nM
Setting: whole designed probe, mean of two concentrations, ends assumed
Reference: negative control set to 0
Direction: higher = stronger binding
Shared flanks, not repeated: GTGAGCGGTGCCCATTGATGGGGAAC … TTTCACTGGGATCGTGGGGAC
Residues (chain): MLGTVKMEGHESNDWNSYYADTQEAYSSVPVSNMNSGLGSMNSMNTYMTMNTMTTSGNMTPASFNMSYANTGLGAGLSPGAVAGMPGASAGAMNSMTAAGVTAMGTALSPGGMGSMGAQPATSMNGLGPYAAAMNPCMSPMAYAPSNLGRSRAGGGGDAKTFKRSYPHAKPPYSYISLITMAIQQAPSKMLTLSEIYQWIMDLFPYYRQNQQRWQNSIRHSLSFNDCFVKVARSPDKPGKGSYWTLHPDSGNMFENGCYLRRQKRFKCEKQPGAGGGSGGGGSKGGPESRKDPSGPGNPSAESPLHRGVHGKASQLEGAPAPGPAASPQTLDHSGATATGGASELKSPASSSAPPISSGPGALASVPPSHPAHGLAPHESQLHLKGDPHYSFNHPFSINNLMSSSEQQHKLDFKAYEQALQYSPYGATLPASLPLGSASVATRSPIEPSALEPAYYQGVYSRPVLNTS
Sequence	normalised bound fraction
AACACTTCTTCCATTTCCTCAACTCCTAAACATTCATTTATTCATTCTTCATCACACAAAAATCTGAATCTGGCTTCTGCCCCCTACCCTCCTTATTTACTTTCTCAAATAGTATACATTTAGTCATTAAACAAACATACATACATGCATATTTTCAAGATTATCAAGCAATTCCTGTTTCAACTTTTCTTAA	0.508 ratio
TATATATATATATACTGCCTCAATGTTTTTTAACATGAAATTATTTAGATTATCTAAGACAAGCTGGCTAGGAGTTGTTTTGATTAGAATCAAAGTAAACATAAAACATATTGGCTCTATTTGCTTAGTGGGCGCAATTAAATTTATGATGTATATAACACCATCAGCTTATTTTGAAAGTAAAGTTCTCACT	0.513 ratio
CCTGAGTTGGTGGAGCCACAAAAAGGAATCCCTGAGTCACTGCTTAGTCACTGGGCTGCCTTGGAGAGTTGATGAGACCTCTGGAAACTTTGTGTAAATAAAGAAATGAACGCTTACATTTTAACTACCGGAACTTGGAGGTTTGTTTGTTACTGCAACAAAGGTTAGCTTTATTGACTAATGCACTGTAACA	0.445 ratio
TGTAATTAGAGAAAAGTTCGGGTAGAAAACGCTATCATCCATTTCATTGTGTGGGTTGCTTAAGAAATGTTTATTTGTGGACCAGGAATTTCTTATTTGCATTGGCCCTGCCTTTGTGTATATATCCACTGCTTAGCAAAATCCTCTTCCTGAGCTGGTGAGCCTGGAAGCCTGGAAATGAAGGCCCATGGCA	0.343 ratio
CTGGAGAAATACAGTACGAAACCCAGCAGGCTTCTGCAAACAACACATCCCTTTAAGTTAATTGGTGTTATATAGAAGCTGAAATGCTCCGCTTATTTACAAAGCTACAGATTTATGTAAAGCAAAACCAATTACACTTAATGCCTAAACTATTCCAGGTGCTCAATGATAATGTTGCTAGGCAGTAGAGAAG	0.264 ratio

Set 3
Target: Fragile X messenger ribonucleoprotein 1, C-terminal low-complexity region (Fmr1, Mus musculus, UniProt P35922)
Method: RNA Bind-n-Seq
Form: RNA
Matrix: in vitro
Concentration: 200 nM
Setting: whole 134-nt RNA, ends assumed
Added: 150 mM LiCl
Reference: input library
Direction: higher = stronger binding
Library: 7-deaza-guanosine replaces G
Shared flanks, not repeated: GGGAGUUCUACAGUCCGACGAUC … UGGAAUUCUCGGGUGUCAAGG
Sequence	log2 enrichment
UAAUUUAGAUCUUAAAGAAAAAGUGGAGCCUGAGGUUCUCAGCACUGAUACCCAAACUUCCCCAGAGCCAGGCACAAGGAUGAACAUUCU	0.742
UCCUGUGCUACACAUCGUAUGUACCGAAUCGGGGUUUUUGGGUUUUUGGGGUUUUUGGGGAAAGUAUUAUGUUACGCCGUUCGGAUCUGC	-1.24
AUUUUUUGUAUCAAGUCCCUGAAUGGAAGUAUGACGUUGGGUCCCUCUGAAGUUUAAUUCUGAGUUCUCAUUAAAAGAAAUUUGCUUUCA	-2.39
CCUCAAGUCCUGUGCUACACAUCGUAUGUACCGAAUCGGGUUGGUUGGUUGGGAAAGUAUUAUGUUACGCCGUUCGGAUCUGCACUUCCA	-0.631
UCCUGUGCUACACAUCGUAUGUACCGAAUCGGGGAAAAAGGGGUUUUUUUGGGGAGGGGAAAGUAUUAUGUUACGCCGUUCGGAUCUGCA	-0.955
CUGUGCUACACAUCGUAUGUACCGAAUCGGGCCCCCCCGGGCCCCCCCGGGGCCCCCCCGGAAAGUAUUAUGUUACGCCGUUCGGAUCUG	-1.55
CUCAAGUCCUGUGCUACACAUCGUAUGUACCGAAUCGGUGGUUUUUUUGGUGGAAAGUAUUAUGUUACGCCGUUCGGAUCUGCACUUCCA	1.13
UGGGAGGUGGAUUUUGUUCAUUUUUUUAGCUCAUUUCCAGGGGUGGGAAUUUUUUUUUAAUAUGUGUCAUGAAUAAAGUUGUUUUUGAAA	0.13

Mixed results
SMILES	target or system	assay	test system	conditions	scale	quantity	result
CC(C)=C1CC[C@H](C)[C@](C)(COc2ccc3ccc(=O)oc3c2)[C@@H]1CCC(N)=O			human, microsomes or S9	2 µM, 0.5 h		remaining compound	0%
COc1ccc(Oc2cc(NCCC(F)(F)F)c3ncc(-c4ccc(C(=O)NC5CC5)c(C)c4)n3n2)c(F)c1F	NCI-H1048	Vi-Cell		1.5 nM, 3 d	reference: DMSO	cell count	0.93 and 0.909

Repeated from above (set 2):
Sequence	normalised bound fraction
CTGGAGAAATACAGTACGAAACCCAGCAGGCTTCTGCAAACAACACATCCCTTTAAGTTAATTGGTGTTATATAGAAGCTGAAATGCTCCGCTTATTTACAAAGCTACAGATTTATGTAAAGCAAAACCAATTACACTTAATGCCTAAACTATTCCAGGTGCTCAATGATAATGTTGCTAGGCAGTAGAGAAG	0.264 ratio
TATATATATATATACTGCCTCAATGTTTTTTAACATGAAATTATTTAGATTATCTAAGACAAGCTGGCTAGGAGTTGTTTTGATTAGAATCAAAGTAAACATAAAACATATTGGCTCTATTTGCTTAGTGGGCGCAATTAAATTTATGATGTATATAACACCATCAGCTTATTTTGAAAGTAAAGTTCTCACT	0.513 ratio
TGTAATTAGAGAAAAGTTCGGGTAGAAAACGCTATCATCCATTTCATTGTGTGGGTTGCTTAAGAAATGTTTATTTGTGGACCAGGAATTTCTTATTTGCATTGGCCCTGCCTTTGTGTATATATCCACTGCTTAGCAAAATCCTCTTCCTGAGCTGGTGAGCCTGGAAGCCTGGAAATGAAGGCCCATGGCA	0.343 ratio
